# Measurements of several laboratories.
# Compare with care: the assays were run in different laboratories.
# T1: DNA aptamer; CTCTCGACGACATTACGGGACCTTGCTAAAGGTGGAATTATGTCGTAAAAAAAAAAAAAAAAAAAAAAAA
# T2: DNA aptamer; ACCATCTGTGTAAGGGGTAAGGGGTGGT
# T3: DNA aptamer; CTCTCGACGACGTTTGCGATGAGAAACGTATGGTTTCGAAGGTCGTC
# T4: DNA aptamer; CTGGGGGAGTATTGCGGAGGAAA
# T5: DNA aptamer; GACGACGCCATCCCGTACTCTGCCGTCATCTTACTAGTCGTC
# T6: DNA aptamer; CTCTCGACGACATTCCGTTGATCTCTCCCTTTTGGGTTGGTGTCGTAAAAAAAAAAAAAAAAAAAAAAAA
# T7: DNA aptamer; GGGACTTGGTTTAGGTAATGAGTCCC
# T8: DNA aptamer; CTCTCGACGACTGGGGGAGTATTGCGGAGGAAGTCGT
# T9: DNA aptamer, abasic dSpacer opposite cytosine; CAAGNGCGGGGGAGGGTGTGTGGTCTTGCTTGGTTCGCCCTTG
SMILES,target,assay,system,setting,endpoint,value
O=c1[nH]c(=O)c2[nH]c(=O)[nH]c2[nH]1,"T1, DNA aptamer","probe displacement, competitor, SPR",,25 °C,binding,binds
COc1cccc2c1C(=O)c1c(O)c3c(c(O)c1C2=O)C[C@@](O)(C(=O)CO)C[C@@H]3O[C@H]1C[C@H](N)[C@H](O)[C@H](C)O1,"T2, DNA aptamer",square-wave voltammetry,whole bovine blood,"37 °C, apparent, Hill fit",Kd,4.5 µM
Nc1ncnc2c1ncn2[C@@H]1O[C@H](COP(=O)(O)OP(=O)(O)OP(=O)(O)O)[C@@H](O)[C@H]1O,"T3, DNA aptamer","probe displacement, competitor, fluorescence",,,binding,binds
Nc1ncnc2c1ncn2[C@@H]1O[C@H](COP(=O)(O)OP(=O)(O)OP(=O)(O)O)[C@@H](O)[C@H]1O,"T4, DNA aptamer",amperometry,,"apparent, equilibrium binding curve, sensor",Kd,77 µM
CC1(C)S[C@@H]2[C@H](NC(=O)[C@H](N)c3ccccc3)C(=O)N2[C@H]1C(=O)O,"T5, DNA aptamer",ITC,,,Kd,4 µM
CN(C)[C@@H]1C(=O)C(C(N)=O)=C(O)[C@@]2(O)C(=O)C3=C(O)c4c(O)cccc4[C@@](C)(O)[C@H]3[C@H](O)[C@@H]12,"T6, DNA aptamer","probe displacement, competitor, SPR",,25 °C,binding,binds
NC[C@H]1O[C@H](O[C@H]2[C@H](O)[C@@H](O[C@H]3O[C@H](CO)[C@@H](O)[C@H](N)[C@H]3O)[C@H](N)C[C@@H]2N)[C@H](N)C[C@@H]1O,"T7, DNA aptamer",amperometry,,"qualitative, together with: tobramycin 0.1 mM",binding,binds
Nc1ncnc2c1ncn2[C@@H]1O[C@H](CO)[C@@H](O)[C@H]1O,"T8, DNA aptamer","competition, fluorescence strand displacement",,together with: adenosine 100 µM,binding,binds
Nc1ncnc2c1ncn2[C@@H]1O[C@H](COP(=O)(O)OP(=O)(O)OP(=O)(O)O)[C@@H](O)[C@H]1O,"T7, DNA aptamer",amperometry,,little response to ATP,binding,no binding
CN(C)c1ccc(C(=N)c2ccc(N(C)C)cc2)cc1,"T9, DNA aptamer, abasic dSpacer opposite cytosine",fluorescence enhancement,,,binding,binds

# For quick reference, copied from above:
SMILES,target,assay,system,setting,endpoint,value
O=c1[nH]c(=O)c2[nH]c(=O)[nH]c2[nH]1,"T1, DNA aptamer","probe displacement, competitor, SPR",,25 °C,binding,binds
COc1cccc2c1C(=O)c1c(O)c3c(c(O)c1C2=O)C[C@@](O)(C(=O)CO)C[C@@H]3O[C@H]1C[C@H](N)[C@H](O)[C@H](C)O1,"T2, DNA aptamer",square-wave voltammetry,whole bovine blood,"37 °C, apparent, Hill fit",Kd,4.5 µM
